Measurements from different studies.
Numbered parts are unrelated; each lists some results of a single study. ± gives the spread as reported.
Chain of UniProt P04517 (whole entry, looked up): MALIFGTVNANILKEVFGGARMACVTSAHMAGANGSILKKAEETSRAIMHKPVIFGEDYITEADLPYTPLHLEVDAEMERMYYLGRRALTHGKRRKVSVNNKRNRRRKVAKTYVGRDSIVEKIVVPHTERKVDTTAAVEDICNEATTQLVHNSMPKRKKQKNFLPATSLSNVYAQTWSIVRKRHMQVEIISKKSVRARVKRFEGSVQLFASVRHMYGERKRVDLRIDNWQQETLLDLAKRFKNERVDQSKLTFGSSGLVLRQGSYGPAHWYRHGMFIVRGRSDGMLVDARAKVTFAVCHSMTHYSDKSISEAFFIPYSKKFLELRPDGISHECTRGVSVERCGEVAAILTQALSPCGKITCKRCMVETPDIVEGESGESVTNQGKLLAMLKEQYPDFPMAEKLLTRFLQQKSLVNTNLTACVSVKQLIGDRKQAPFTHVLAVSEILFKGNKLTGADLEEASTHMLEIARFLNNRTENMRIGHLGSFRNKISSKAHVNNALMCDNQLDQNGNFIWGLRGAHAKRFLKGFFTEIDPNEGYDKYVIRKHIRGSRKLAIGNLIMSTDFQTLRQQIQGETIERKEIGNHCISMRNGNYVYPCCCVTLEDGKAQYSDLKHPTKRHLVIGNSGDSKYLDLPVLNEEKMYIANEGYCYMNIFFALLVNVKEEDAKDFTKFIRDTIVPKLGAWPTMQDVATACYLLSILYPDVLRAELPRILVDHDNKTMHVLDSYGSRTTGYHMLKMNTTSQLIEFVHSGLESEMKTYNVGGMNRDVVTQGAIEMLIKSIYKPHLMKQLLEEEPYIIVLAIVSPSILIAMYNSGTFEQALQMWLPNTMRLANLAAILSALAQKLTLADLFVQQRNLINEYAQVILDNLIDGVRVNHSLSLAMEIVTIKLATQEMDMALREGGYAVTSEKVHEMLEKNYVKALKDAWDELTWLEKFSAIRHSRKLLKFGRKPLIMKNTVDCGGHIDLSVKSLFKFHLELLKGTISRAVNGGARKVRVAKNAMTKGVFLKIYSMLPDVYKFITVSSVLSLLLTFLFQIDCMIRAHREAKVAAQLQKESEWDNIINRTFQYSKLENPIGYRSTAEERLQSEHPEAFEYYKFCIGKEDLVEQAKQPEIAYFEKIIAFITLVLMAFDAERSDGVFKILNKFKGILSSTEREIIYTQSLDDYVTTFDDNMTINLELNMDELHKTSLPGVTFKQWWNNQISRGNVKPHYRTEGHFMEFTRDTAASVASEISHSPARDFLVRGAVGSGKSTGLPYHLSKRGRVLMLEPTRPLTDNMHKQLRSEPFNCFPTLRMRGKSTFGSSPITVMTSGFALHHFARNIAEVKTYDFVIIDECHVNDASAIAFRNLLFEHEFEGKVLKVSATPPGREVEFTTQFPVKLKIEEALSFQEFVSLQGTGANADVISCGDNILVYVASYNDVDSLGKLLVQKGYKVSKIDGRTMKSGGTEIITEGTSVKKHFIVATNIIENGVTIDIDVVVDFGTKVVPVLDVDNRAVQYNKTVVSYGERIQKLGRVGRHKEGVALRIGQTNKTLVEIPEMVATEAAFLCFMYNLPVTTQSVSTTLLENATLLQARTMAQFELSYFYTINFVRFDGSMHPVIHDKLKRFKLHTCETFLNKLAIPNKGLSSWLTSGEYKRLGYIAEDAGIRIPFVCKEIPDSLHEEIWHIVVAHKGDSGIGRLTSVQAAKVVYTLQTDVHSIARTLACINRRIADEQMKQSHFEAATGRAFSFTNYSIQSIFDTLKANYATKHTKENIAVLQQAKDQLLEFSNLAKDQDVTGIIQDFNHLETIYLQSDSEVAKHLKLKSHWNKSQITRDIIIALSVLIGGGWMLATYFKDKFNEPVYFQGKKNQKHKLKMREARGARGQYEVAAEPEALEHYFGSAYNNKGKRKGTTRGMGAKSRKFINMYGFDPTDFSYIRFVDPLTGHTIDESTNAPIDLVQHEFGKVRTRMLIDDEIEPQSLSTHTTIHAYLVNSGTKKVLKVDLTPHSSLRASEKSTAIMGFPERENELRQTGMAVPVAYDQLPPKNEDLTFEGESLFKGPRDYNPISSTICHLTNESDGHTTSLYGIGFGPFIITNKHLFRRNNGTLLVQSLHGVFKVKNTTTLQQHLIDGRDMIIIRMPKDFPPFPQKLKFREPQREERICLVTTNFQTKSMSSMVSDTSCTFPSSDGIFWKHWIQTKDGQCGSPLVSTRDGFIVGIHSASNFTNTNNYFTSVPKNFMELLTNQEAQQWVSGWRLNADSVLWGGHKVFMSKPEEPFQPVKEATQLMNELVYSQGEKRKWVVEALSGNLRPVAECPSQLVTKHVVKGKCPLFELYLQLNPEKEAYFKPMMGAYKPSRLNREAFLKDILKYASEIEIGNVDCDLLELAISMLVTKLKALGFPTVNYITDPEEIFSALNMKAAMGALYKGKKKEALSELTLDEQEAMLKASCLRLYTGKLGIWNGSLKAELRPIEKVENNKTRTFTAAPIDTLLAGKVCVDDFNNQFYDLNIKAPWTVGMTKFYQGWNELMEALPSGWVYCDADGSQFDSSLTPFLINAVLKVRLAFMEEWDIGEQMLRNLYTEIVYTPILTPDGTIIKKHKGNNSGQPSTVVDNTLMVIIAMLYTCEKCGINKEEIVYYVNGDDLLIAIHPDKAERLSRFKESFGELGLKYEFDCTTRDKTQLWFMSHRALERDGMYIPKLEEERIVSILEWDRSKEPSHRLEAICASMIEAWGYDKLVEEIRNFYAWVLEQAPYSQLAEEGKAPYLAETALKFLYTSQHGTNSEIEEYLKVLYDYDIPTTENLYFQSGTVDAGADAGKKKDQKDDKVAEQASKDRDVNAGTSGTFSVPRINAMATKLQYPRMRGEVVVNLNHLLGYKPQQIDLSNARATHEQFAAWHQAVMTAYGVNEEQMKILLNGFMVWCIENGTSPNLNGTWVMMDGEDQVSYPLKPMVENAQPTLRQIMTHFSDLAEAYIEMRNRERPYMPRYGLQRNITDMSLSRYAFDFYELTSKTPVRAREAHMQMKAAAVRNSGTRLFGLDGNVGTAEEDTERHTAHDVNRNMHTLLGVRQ
Chain of UniProt P07384 (whole entry, looked up): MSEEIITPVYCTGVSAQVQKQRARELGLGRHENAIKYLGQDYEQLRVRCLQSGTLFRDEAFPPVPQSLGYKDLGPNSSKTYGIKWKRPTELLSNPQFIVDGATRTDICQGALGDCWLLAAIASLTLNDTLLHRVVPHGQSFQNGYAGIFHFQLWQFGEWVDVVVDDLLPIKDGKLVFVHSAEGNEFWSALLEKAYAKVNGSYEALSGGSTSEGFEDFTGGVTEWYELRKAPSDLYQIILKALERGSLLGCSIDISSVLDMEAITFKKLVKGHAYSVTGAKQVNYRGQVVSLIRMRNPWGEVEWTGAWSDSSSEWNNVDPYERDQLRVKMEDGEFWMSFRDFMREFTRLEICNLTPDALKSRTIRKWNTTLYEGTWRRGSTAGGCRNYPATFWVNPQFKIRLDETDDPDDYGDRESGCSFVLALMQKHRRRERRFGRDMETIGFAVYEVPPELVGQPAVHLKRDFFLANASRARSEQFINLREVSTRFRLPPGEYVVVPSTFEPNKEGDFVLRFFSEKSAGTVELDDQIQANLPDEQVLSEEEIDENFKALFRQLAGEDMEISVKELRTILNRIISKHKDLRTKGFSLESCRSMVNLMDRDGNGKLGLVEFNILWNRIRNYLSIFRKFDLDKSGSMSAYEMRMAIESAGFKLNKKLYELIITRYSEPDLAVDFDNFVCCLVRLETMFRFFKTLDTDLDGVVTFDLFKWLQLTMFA

Series 1 — cell line: MCF7; time: 72 h
Compound	CC50 [µM]
O=C(NCc1ccccc1)c1cn(Cc2ccc(C(F)(F)F)cc2)c2ccc(Oc3ccccc3)cc2c1=O	21.5 ± 0.39
O=C(NCc1ccc(C(F)(F)F)cc1)c1cn(Cc2ccc(F)cc2)c2ccc(Oc3ccccc3)cc2c1=O	20.9 ± 1.46
O=C(NCc1ccc(Cl)cc1)c1cn(Cc2ccc(Cl)cc2)c2ccc(Oc3ccccc3)cc2c1=O	22 ± 1.27

Mixed results
SMILES	tested on	test	setting	measurement	result
NC(=O)CI	Genome polyprotein, NIa protease (Tobacco etch virus, UniProt P04517)	enzyme activity, inhibitor		IC50	170 µM
Cc1cn([C@H]2C[C@H](N=[N+]=[N-])[C@@H](CO)O2)c(=O)[nH]c1=O	MT4	cell viability	3 days	CC50	> 0.5 µM
O=C(Nc1ncccn1)OCc1ccccc1	Candida albicans		concentration not given	activity class	inactive
CC(C)C[C@H](NC(=O)[C@H]1O[C@@H]1C(=O)O)C(=O)NCCCCN=C(N)N	CAPN1 (Homo sapiens, UniProt P07384)	enzyme activity, inhibitor		IC50	0.01 µM
C/C(=C\c1ccccc1)C(=O)Nc1ncccn1	Candida albicans		concentration not given	antifungal activity	inactive
Cc1onc(-c2ccccc2)c1C(=O)N1CCN(c2ccc([N+](=O)[O-])cc2Cl)CC1	MDCK	cell viability	2 days	CC50	> 20 µM

For quick reference, copied from above (mixed results):
SMILES	tested on	test	setting	measurement	result
Cc1cn([C@H]2C[C@H](N=[N+]=[N-])[C@@H](CO)O2)c(=O)[nH]c1=O	MT4	cell viability	3 days	CC50	> 0.5 µM
